Experimental data gathered from unrelated publications.
“And” joins repeats or separate records; there may be more than shown.
CDK7: Cyclin-dependent kinase 7 (CDK7, Homo sapiens, UniProt P50613)
CDK7 with cyclin H, MAT1: Cyclin-dependent kinase 7, with cyclin H, MAT1 (CDK7, Homo sapiens, UniProt P50613)
CDK7 with cyclin H: Cyclin-dependent kinase 7, with cyclin H (CDK7, Homo sapiens, UniProt P50613)

CNS(=O)(=O)Nc1nccc(Cc2c(C)c3ccc(Oc4ncccc4F)cc3oc2=O)c1F — remaining binding (CDK7; binding, competition with immobilised ligand; 10 µM): 100%
cryptolepine — inhibition (CDK7; kinase activity, inhibitor, ADP-Glo; 10 µM): 91.4%
O=C(Cc1ccc(OCc2ccccc2)cc1)NC1(C(=O)O)CCN(C(=O)c2ccc(-c3cccc(Cl)c3)cc2)CC1 — activity vs control (CDK7; enzyme activity, inhibitor; 10 µM): 193%
Cc1cnc2nc1Nc1cccc(c1)COC/C=C/COCc1cc(ccc1OCCN1CCOCC1)N2 — remaining binding (CDK7; binding; 0.1 µM): 100%
COc1ccc(NC(=O)Nc2ccc3c(c2)C(=O)N(C(C)CO)CC(C)C(CN(C)Cc2ccc4c(c2)OCO4)O3)cc1 (stereo not drawn) — remaining binding (CDK7; binding, competition with immobilised ligand; 10 µM): 77%
O=C=[N][Ru-4]123([n]4c5ccc(O)cc5c5c6c(c7cc(F)c[n+]1c7c54)C(=O)NC6=O)[S+]1CC[S+]2CC[S+]3CC1 (stereo not drawn) — remaining activity (CDK7; enzyme activity; 100 nM, human enzyme, added: 10 µM ATP; baseline: untreated): 114%
C[C@]1(O)CCCN(c2nc(Nc3ccc(S(=O)(=O)N[C@H]4CC[C@H](CN5CCN(c6ccc(C7CCC(=O)NC7=O)cc6F)CC5)CC4)cc3)ncc2C(F)(F)F)C1 (stereo partly drawn) — remaining binding (CDK7; binding, competition with immobilised ligand; 1 µM): 38%
C#CCOC(=O)[C@]1(C)C=C(C(=O)OC(C)(C)C)C(=O)CC1 — normalized luminescence (CDK7 with cyclin H, MAT1; kinase activity, Kinase-Glo luminescence; concentration not given): -0.077 and 0.0602 and 0.127
N[C@H]1CC[C@H](Nc2nccc(-c3cccnc3Oc3ccc(NC(=O)NC4CC4)c4ccccc34)n2)CC1 — log2 LFQ intensity (CDK7; kinobead competition pulldown; HEK293/HCT116 lysate mixture; 10 µM, 1 h, 4 °C; lower = stronger competition): 18.6 and 21.6 and 19 and 22.2
COc1c(Cl)cccc1Nc1c(-c2ccncc2C#C[C@@]2(C)CCCN2C(=O)/C=C/CN(C)C)[nH]c2c1C(=O)NCC2 — remaining binding (CDK7; binding, competition with immobilised ligand; 3 µM): 92%
CN1CCN(Cc2ccc(NC(=O)c3cccc(C#Cc4cnc(N)c5ncccc45)c3)cc2C(F)(F)F)CC1 — remaining binding (CDK7; cell-free assay, competition with immobilised ligand; 0.5 µM): 29%
O=c1cc(-c2cccc(O)c2)oc2c1ccc1occc12 — inhibition (CDK7; enzyme activity, inhibitor; 10 µM): > 50%
Cc1cccc(O[C@H]2CCC[C@@H](C(C)CNCc3ccncc3)C2)c1 (relative stereo) — inhibition (CDK7; enzyme activity, inhibitor; 1 µM): 3%
CNC(=O)C1CCN(c2cc(C)c(F)cc2NC(=O)c2ccc(-c3cc(O)ccc3C)c(C)c2)CC1 — remaining binding (CDK7; binding, competition with immobilised ligand; 1 µM): 100%
C=CC(=O)Nc1cccc(-c2cnc3[nH]cc(C(=O)NC(C)(C)C)c3n2)c1 — inhibition (CDK7; enzyme activity, inhibitor; 0.1 µM): 4%
C=CC(=O)Nc1cc(-c2nn(C3CCN(CCNC(=O)[C@H](C)CCC45CC6CC(CC(C6)C4)C5)CC3)c3ncnc(N)c23)ccc1Oc1ccccc1 — inhibition (CDK7; inhibitor, KiNativ profiling; biochemical; 2 µM): 0%
O=C(Nc1cc(-c2ccnc3[nH]ccc23)c(Cl)cn1)[C@H]1CCC[C@@H](NC(=O)C(F)(F)F)C1 — remaining binding (CDK7; binding, competition with immobilised ligand; 0.1 µM): 3.2%
NC(=O)C[C@H]1CCc2sc3ncnc(O[C@H]4CC[C@H](N5CCOCC5)CC4)c3c21 — inhibition (CDK7 with cyclin H; enzyme activity, inhibitor; 10 µM): 16%
COC(=O)[C@@]1(C)C=C(C(=O)Nc2cccc(C(=O)Nc3ccc(Nc4nccc(-c5cccnc5)n4)c(C)c3)c2)C(=O)CC1 — remaining activity (CDK7; enzyme activity, inhibitor, radiometric; 1 µM): 95%
COc1c(OCCCN2CCOCC2)ccc2c1N=C(NC(=O)c1cnc(N)nc1)N1CCN=C21 — remaining activity (CDK7; kinase activity, inhibitor; 1 µM; baseline: untreated control): 99%
COc1cc(Nc2nccc(-c3cnn4nc(OC)ccc34)n2)cc(C(F)(F)F)c1 — remaining binding (CDK7; binding, competition with immobilised ligand; 1 µM): 75%
C=CC(=O)N1Cc2nc(-c3cc(-c4cc(Cl)cnc4Cl)c(F)cc3F)n(-c3ccncn3)c2C1 — inhibition (CDK7 with cyclin H, MAT1; kinome panel; 1 µM): -5.2%
COCC12C(=O)NC3C4(C(OC)CC1O)C1CC5(O)C(OC)C(O)C(OC(C)=O)(C1C5OC(=O)c1ccccc1)C3(O)C(OC)C24 (stereo not drawn) — remaining activity (CDK7 with cyclin H, MAT1; kinase activity, inhibitor, ProQinase kinase profiling; 25 µM; baseline: control): 100% and 118%
CCn1cc(C(=O)O)c(=O)c2c(N)c(F)c(NC3CCCCC3)cc21 — inhibition (CDK7 with cyclin H; kinase activity; 0.1 µM, added: ATP at Km): 2.2%

Excerpt of the above:
O=C(Cc1ccc(OCc2ccccc2)cc1)NC1(C(=O)O)CCN(C(=O)c2ccc(-c3cccc(Cl)c3)cc2)CC1 — activity vs control (CDK7; enzyme activity, inhibitor; 10 µM): 193%
Cc1cnc2nc1Nc1cccc(c1)COC/C=C/COCc1cc(ccc1OCCN1CCOCC1)N2 — remaining binding (CDK7; binding; 0.1 µM): 100%
